Measured values from different studies.
Each numbered part is a random draw from the data of one study; scales do not carry over between parts. Substitutions count along the parent as printed.

Series 1
Target: Runt-related transcription factor 1 (RUNX1, Homo sapiens, UniProt Q01196, residues 1-453, full length assumed)
UniProt Q01196, sequence (whole entry, looked up): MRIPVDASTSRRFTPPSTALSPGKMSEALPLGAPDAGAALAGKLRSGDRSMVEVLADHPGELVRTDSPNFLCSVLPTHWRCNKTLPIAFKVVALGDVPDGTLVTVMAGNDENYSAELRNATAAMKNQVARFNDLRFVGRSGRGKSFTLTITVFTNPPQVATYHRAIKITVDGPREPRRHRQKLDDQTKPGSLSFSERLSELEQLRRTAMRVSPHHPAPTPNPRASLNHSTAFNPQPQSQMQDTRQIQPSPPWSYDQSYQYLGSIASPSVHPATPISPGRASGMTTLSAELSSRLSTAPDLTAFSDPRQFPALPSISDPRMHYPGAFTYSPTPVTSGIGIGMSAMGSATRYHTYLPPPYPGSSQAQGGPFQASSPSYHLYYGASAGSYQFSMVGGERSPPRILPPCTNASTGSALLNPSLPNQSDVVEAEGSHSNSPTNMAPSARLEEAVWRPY
Method: protein-binding microarray
Form: double-stranded DNA, one strand shown
Sample: in vitro
Concentration: not given
Setting: k-mer, scored over probes, only values ≥0.25
Reading: higher = stronger binding
Sequence | E-score
ACCGCAT | 0.468
CCGCAGC | 0.285
CCGCAAG | 0.334
ACCACAA | 0.483
GTAACCA | 0.302
CTACCGC | 0.273
AGCCACA | 0.252
AGTTGTG | 0.255

Series 2
Target: PABPC1L2, full length, GST fusion (mouse, UniProt A0ABA7IW68)
Method: RNAcompete
Form: RNA
Sample: in vitro
Concentration: 20 nM
Setting: 7-mer, probes averaged, single round
Reference: mean of 7-mers
Reading: higher = stronger binding
Target sequence (chain): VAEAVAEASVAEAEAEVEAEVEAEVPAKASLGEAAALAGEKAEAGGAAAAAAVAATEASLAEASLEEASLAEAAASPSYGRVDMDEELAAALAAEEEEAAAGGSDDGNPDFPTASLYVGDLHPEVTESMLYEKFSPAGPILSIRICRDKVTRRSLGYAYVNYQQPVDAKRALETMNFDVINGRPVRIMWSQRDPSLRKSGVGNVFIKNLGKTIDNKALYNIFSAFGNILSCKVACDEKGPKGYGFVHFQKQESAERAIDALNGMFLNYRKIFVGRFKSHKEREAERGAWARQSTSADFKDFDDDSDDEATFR
Sequence | 7-mer Z-score
CCUAAUG | -0.289
CAUAAGG | -0.0264
GUCAUGU | -0.307
AUAGUCA | -0.182
UACUGGA | 0.12
CAGGUCC | -0.262
ACCCCUC | -0.311
GGCCUAU | -0.112

Series 3
Target: HLA class I histocompatibility antigen, A alpha chain, allele A*80:01 (Homo sapiens, UniProt P04439)
Observed: peptide-MHC binding
Form: peptide
Concentration: concentration not given
Molecule | binding
HSGFIYFGK | inactive
EASTWLDIF | inactive
NTIEELSGY | inactive
GTVPTDNPF | inactive
FSFFMNENF | inactive
SKLRALLTL | inactive
RADEINAIL | inactive
MTYLDGHPV | inactive
VYWENEVSI | inactive
LSEEANWAF | inactive
PSYQLPLPM | inactive
RWASGVSEI | inactive
NPLEIYQEI | inactive

Series 4
Target: CCND2, cyclin fold, Cln2 fusion (human)
Method: yeast growth competition, sequencing
Sample: yeast
Setting: strong parent motif
Reference: not given
Reading: higher = stronger binding
Parent: viral docking peptide; YKVKRRLVFGADD
Variant | normalised enrichment score
R5E | 0.284
A11K | 1.15
V8L | 0.794
G10A | 0.906
L7G | -0.648
F9P | -0.0248
V3F | 0.554
R5Y | -0.0686
D12H | 0.804
R5A | 0.255
G10C | 1.26
K2D | 1.25
G10K | 1.13
L7A | -0.0845
L7R | 0.554

Some of these lines once more (series 3):
Molecule | binding
GTVPTDNPF | inactive
PSYQLPLPM | inactive
VYWENEVSI | inactive
LSEEANWAF | inactive
EASTWLDIF | inactive
